Measured values collected from several papers.
Parts stem from different laboratories: compare values within a part only.
UniProt O15294, sequence (whole entry, looked up): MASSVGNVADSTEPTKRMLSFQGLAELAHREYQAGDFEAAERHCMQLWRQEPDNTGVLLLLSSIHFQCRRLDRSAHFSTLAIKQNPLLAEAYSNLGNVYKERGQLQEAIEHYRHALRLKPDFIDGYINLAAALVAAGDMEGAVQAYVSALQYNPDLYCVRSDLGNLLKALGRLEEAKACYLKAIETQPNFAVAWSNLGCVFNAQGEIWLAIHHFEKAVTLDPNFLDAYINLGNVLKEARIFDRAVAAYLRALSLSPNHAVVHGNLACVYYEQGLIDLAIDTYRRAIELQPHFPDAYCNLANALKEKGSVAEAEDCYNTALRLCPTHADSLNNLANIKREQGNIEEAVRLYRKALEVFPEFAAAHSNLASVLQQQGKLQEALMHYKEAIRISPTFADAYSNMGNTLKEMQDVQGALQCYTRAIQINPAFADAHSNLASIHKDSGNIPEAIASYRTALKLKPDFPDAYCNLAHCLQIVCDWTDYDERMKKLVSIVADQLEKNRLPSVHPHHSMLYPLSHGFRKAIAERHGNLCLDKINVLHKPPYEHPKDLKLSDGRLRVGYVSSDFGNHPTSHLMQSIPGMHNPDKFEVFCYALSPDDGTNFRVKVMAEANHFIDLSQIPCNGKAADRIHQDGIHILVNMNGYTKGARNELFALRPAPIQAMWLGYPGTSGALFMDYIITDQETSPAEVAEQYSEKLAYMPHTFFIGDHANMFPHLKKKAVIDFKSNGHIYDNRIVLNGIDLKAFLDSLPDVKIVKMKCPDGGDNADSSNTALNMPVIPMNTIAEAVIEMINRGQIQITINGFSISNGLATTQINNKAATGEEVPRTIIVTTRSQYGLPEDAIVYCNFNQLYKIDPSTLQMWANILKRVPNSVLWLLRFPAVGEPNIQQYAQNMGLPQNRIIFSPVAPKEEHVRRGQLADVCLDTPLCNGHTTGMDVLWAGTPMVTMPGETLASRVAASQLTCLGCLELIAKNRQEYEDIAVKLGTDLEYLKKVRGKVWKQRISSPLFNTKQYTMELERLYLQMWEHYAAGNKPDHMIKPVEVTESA

Set 1 — method: protein-binding microarray; molecule type: double-stranded DNA, one strand shown; medium: in vitro; tested at: 940 nM top; notes: 60-bp whole probe; with: salmon DNA 0.4 mg/ml; reference: random background probes; direction: higher = stronger binding; quantity: fitted relative affinity; constant ends, left off below: GCCTAGCAC … GTCTTGATTCGCTTGACGCTGCTG
Target: Interferon regulatory factor 5, full length, phosphomimetic (IRF5, Homo sapiens, UniProt Q13568-2, residues 1-514, S451D/S453D/S456D/S462D)
TTAGGTTTCGACTATCAGTTAGTGCTA: 9.59 z-score
TTAGATCTCAGTGTCGATTAGTGCTAG: 0.315 z-score
TCAAATGCCCTTTTGGTACTGTGCTAG: -0.617 z-score
GACGCTATCGGGACTGGGGACGTGCTA: -0.122 z-score
TTAGGTTTCGGGTTTCTGTTAGTGCTA: 10.4 z-score
GTAAGCAAAAATGATTGGTTGTGCTAG: -0.171 z-score
TTAGTTCTCGGACTGGGTTAGTGCTAG: 1.01 z-score
GGAAAAATGATGTTTTAGGTCGTGCTA: -0.581 z-score

Set 2 — method: RNA Bind-n-Seq; molecule type: RNA; medium: in vitro; tested at: not given; reference: input RNA pool; direction: higher = stronger binding; quantity: bound/input enrichment
Target: RING finger protein unkempt homolog, zinc fingers 1-6, GST-SBP tag (UNK, Homo sapiens, UniProt Q9C0B0, residues 30-357)
Notes: RNA with constant flanks, human-mouse chimeric sites, ends assumed
Constant ends, left off below: GGGAGUUCUACAGUCCGACGAUC … CAACAGAGGAUUGAGCAUCA
Residues (chain): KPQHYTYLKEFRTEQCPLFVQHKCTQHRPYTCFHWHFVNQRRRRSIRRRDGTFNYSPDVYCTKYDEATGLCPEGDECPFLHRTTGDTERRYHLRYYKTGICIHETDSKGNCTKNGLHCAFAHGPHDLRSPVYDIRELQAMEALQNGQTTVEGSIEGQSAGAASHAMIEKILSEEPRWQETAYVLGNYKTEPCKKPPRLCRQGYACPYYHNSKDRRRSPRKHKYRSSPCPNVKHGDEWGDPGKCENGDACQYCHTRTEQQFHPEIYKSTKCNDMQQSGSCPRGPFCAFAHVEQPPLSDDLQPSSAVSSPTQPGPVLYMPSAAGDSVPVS
ACUCAGAGAUCCACCUCCCAAAGUGCUGGGAGUAAAGUCUGAUAUUACACACCUAACUUCAUAGACAUAUAUUUUUUUUAAUAUGAAUCUUCCUGUUCGUCCAGGGAAGAAAGAUUUGUU: 25.8 ratio
GCGGCAGAAUCAUGGAGGACAUGAUGGAGCUCCCCAAAGCGCGCGUCAACGCCGGCAUGUUACCACAGUAUAUCGACCGGCCCGUGUGCUUCGUGGGGAAGCUGGAAAAGAUUCAUCCCA: 0.0643 ratio
GUGACUGGUGUUAAGAUUUCCCCUCAGAAAAGAACUGCAGUAGUCACCAUAAUUCCAUCUAUAGUGAGUGCCAGUCAGAUUGUGGAGCUGGUCCCAGACCUCAGUUUAGACAUGGGAACU: 0.684 ratio
UCUGGUCACACUCGUGUGUAUGGUGUUUGCUUUGUGGACACUUCACUGGGAAAGUUUUUCAUCGGCCAGUUUUCGGAUGACCGCCACUGUUCCAGAUUUAGGACGCUAGUGGCACACUAU: 0.158 ratio
GUACUGCAGCAGCAGGGAAAACUGCAGGAAGCUCUGAUGCACUAUAAGGAGGCUAUUCGAAUCAGUCCUACCUUUGCUGAUGCUUAUUCUAAUAUGGGAAACACUCUAAAGGAGAUGCAG: 0.153 ratio
UCAGGAACCCAGACAAACAUGAAUGUAAAUGAAGUCAUUAGCAAUAGAGCAAUUGAAAUGUUAGGAGGUGAACUUGGCAGCAAGAAGCCUGUGCACCCCAAUGAUCAUGUUAACAAAAGC: 0.826 ratio
AACAGAUUGUCUUUAAGCAUUCCAAGCGAGAAUGCUGGGGUGAUCAUAAUUACCCACGUGCCUUCUGACUGAGCUUUAAUGCUGUUCAUCCUUGAUGCUUUCCUUCACUCCAGAAUUGUU: 0.0958 ratio
AAAGCCCAAGUAUUUUGAAAAAACUCGAACAGAUUUGACAAGGGUAGCCAGCUUGGAGUCUAGCAACUUGCCAAUGUUGCUUACCAACUGGGGGCUUUGUUUUUCUUUCUUCUUUCAAAU: 0.161 ratio

Set 3 — method: RNA Bind-n-Seq; molecule type: RNA; medium: in vitro; tested at: 365 nM; reference: no-protein control; direction: higher = stronger binding; quantity: RBNS enrichment (R)
Target: RNA binding protein fox-1 homolog 2, RRM domain, GST-SBP tag (RBFOX2, Homo sapiens, UniProt O43251-10, residues 100-194)
Notes: natural RNA segment, single round, ends assumed
Constant ends, left off below: GGGAGUUCUACAGUCCGACGAUC … UGGAAUUCUCGGGUGCCAA
Residues (chain): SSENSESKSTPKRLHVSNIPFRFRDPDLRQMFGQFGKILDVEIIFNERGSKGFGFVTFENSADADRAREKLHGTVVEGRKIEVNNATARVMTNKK
CCUUGGUCACUGUGAUUUCUGUUUUGUUUAAAAAAUUCUUACAAACCUCAGGAAAACUGUGCCCUCCGCCGGCUACCUUAGCUUAGCGUGUCAGCGGGCGCCACAGCGGA: 0.284
CUGUAUUGACUGUGUAUGUGCCUUUCACCUUGAGCAUGCUUCAGGAAUUUUUUUUUUUCUUAAACCACAGAACUUGAAUACACAAGGGAACCAGAAUUCACAAAGUCCUA: 4.49
AAAUUUCUCAUUACUGGGUUAGAAAACAAAGAGGGAUUGCCCUGCACAUUUUCUUUUGUGCUUUUAAAUGUUUCUUAAGUUGGAACAGGUUUCCUCGGGCCUGUUUUGAC: 0.59
CUUCUGGGGUGGGGACAGGCCCUCAUGGCAGGCUUGUUCCCGUGGCUCUGAGCGAGGCCUCUUCCUGCUGGGCUCCCAGACUCCUGCAUCCAGGCCCCCACCUUCUCGGC: 0.506
UUGAUGGUGUCCAUACCGACUAUAUUGUUCCCAGCUUGUUCUGAGUAGCAUGUCAGCUGCUGAUGAAGUAGAAGGCCUGGGUGGCCUGGAAAAAGGACACAGAAUGGGGC: 8.41
UGGAGCGCUGCUGUGACCACUGCCCUGGGCAGAAGGCCUGGAUGUCUCACUACUGAGCACCGAUGUGUAUGAUACUACAGACUAUAUUAAAGUGGAGUAACAUUUCUUUC: 0.539
AACAGACAGCCUUCUGACCCCUGUGCGUCUGCCACGUGCUGGGUGUGCCUUACUCAUAGGGCUCAGGCUCCUGGCCUCUGGCUUCCUGCUUCUGGAUUCUCACCUUCACA: 0.305
AACAUUUCAGCAGGCCACCUCCCCUCAUCUUCCCCGCCCUGUCCAGCGCCCUGGCAAAGGCUGACAACUGGCUGUCUUGGGGCCGAACAGCCCCUGCCCUGCCUCUGAGG: 0.379

Other studies, line by line
THQHAHHVYSIDPSG  minimum log2 enrichment ratio (UDP-N-acetylglucosamine--peptide N-acetylglucosaminyltransferase 110 kDa subunit (OGT, Homo sapiens, UniProt O15294); binding, phage display NGS; peptide; reference: input library): 2.01

Excerpt of the above (set 1):
TTAGGTTTCGGGTTTCTGTTAGTGCTA: 10.4 z-score
GTAAGCAAAAATGATTGGTTGTGCTAG: -0.171 z-score
TTAGTTCTCGGACTGGGTTAGTGCTAG: 1.01 z-score
